Experimental data collected from several papers.
Each numbered part is a random draw from the data of one study; scales do not carry over between parts. Values joined by “and” are separate records of one study, mostly repeats; a detail may differ.

Series 1
Cell line: A-375
Tested at: 100 µM
Time: 36 h
`O=c1c(O[C@@H]2O[C@H](CO)[C@H](O)[C@H](O)[C@H]2O)c(-c2ccc(O)c(O)c2)oc2cc(O)cc(O)c12` has a viability of 108%.
With `C[N+]1(CCCCC[N+]2(C)CCCC2)CCCC1` the viability was 114%.
`c1ccc2c(c1)CCCC2C1=NCCN1` (stereo not shown) has a viability of 113%.
`CCn1cc(C(=O)O)c(=O)c2cc(F)c(N3CCNCC3)cc21` has a viability of 89.2%.

Series 2
Target: Aurora kinase A (AURKA, Homo sapiens, UniProt O14965)
Read-out: enzyme activity
Action: inhibitor
Tested at: 0.5 µM
Relative to: control
Target sequence (O14965 1-403): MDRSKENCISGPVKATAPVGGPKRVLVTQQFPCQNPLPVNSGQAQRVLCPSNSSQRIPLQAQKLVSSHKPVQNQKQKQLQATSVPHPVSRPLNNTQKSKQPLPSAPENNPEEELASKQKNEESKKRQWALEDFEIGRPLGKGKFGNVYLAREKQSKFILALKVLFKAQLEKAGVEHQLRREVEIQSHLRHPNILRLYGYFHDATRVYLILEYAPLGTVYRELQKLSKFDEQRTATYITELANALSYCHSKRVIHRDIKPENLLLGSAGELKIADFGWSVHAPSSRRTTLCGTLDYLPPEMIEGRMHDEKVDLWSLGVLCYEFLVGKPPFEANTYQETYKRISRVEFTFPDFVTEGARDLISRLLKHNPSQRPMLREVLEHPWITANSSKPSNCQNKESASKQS
With `O=C(CCCc1ccc(-c2ccccc2F)cc1)Nc1ccc(O)cc1` the remaining activity was 104%.
The remaining activity of `Cn1c2ccccc2c2c3c(c4c5ccccc5n(CCC#N)c4c21)CNC3=O` is reported as 56.8%.
`COc1ccc(CNC(=O)Nc2ncc([N+](=O)[O-])s2)cc1` gave a remaining activity of 97.4%.
With `O=C(O)c1ccc2c3c1cccc3c(=O)n1c3ccccc3nc21` the remaining activity was 78.6%.
The remaining activity of `O=c1c2ccccc2[nH]c(=S)n1CCN1CCC(=C(c2ccc(F)cc2)c2ccc(F)cc2)CC1` is reported as 100%.
The remaining activity of `COc1cc2nccc(Oc3ccc(NC(=S)NC(=O)c4ccccc4C)cc3)c2cc1OC` is reported as 18.9%.
`Cc1ccc(NC(=O)c2ccc(CN3CCN(C)CC3)cc2)cc1Nc1nc(-c2cccnc2)cs1` has a remaining activity of 105%.
For `OCC(O)CCON=C1C(c2c(O)[nH]c3ccccc23)=Nc2ccccc21` (stereo not shown), the remaining activity was 9.78%.
`Nc1ncnc2n[nH]c(Nc3ccc(F)cc3)c12` has a remaining activity of 92.3%.
`Cn1sc(=O)n(Cc2ccccc2)c1=O` gave a remaining activity of 104%.
With `NCCNc1ncc(C(N)=O)c(Nc2cccc(C(F)(F)F)c2)n1` the remaining activity was 92.8%.
`O=C(Nc1cccc(Nc2cc(Nc3cccc(C(F)(F)F)c3)ncn2)c1)C1CC1` gave a remaining activity of 107%.
With `CNC(=O)c1cc(Oc2ccc(NC(=O)Nc3ccc(Cl)c(C(F)(F)F)c3)cc2)ccn1` the remaining activity was 103%.
For `N#CC(C#N)=C(N)/C(C#N)=C/c1ccc(O)cc1`, the remaining activity was 89.6%.
`C#Cc1cccc(Nc2ncnc3cc(OCCOC)c(OCCOC)cc23)c1` has a remaining activity of 75.3%.
For `COc1cc2ncnc(Nc3ccc(F)c(Cl)c3)c2cc1OCCCN1CCOCC1`, the remaining activity was 95.3%.
`Oc1ccc(-c2nc(-c3ccncc3)c(-c3ccc(F)cc3)[nH]2)cc1` has a remaining activity of 96.1%.
The remaining activity of `O=C1NC(=O)C(c2cn(CCCO)c3ncccc23)=C1c1cnccn1` is reported as 107%.
For `CCOC(=O)c1c(C)[nH]c(/C=C2\C(=O)Nc3ccccc32)c1C`, the remaining activity was 90.4%.
With `CC(C)[C@H](CO)Nc1nc(Nc2cc(N)cc(Cl)c2)c2ncn(C(C)C)c2n1` the remaining activity was 80.5%.

Series 3
Target: Sigma intracellular receptor 2 (TMEM97, Homo sapiens, UniProt Q5BJF2)
Sequence of UniProt Q5BJF2 (whole entry, looked up): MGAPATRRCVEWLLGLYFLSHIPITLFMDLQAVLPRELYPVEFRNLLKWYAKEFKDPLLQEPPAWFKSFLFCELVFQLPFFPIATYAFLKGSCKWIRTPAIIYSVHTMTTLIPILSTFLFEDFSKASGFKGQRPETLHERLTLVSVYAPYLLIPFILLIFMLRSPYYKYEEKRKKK
Read-out: binding
Technique: radioligand binding
Tested at: 10 µM
`O=C(Nc1ccc(-n2nc(-c3cccnc3)cc2C(F)(F)F)cn1)c1ccc(-c2ccccc2)c(F)c1` gave an inhibition of 30.1%.
The inhibition of `Cc1nc(C2CCN(C(=O)c3ccc(OC(F)(F)F)cc3N)CC2)c2ncc(N3CCN(C)CC3)cc2n1` is reported as 51.4%.
`Cc1c(N2CCCC2)nc2ccc(Br)cc2c1C(=O)NC[C@H](CCC(=O)O)c1ccccc1Cl` has an inhibition of 8.52%.
`CC(=O)Nc1nc(CN2CCC[C@H](Cc3cc(C)nc(C)c3)C2)cs1` has an inhibition of 59.6%.
For `CCCOc1ccc([C@H]2[C@H](C(=O)O)[C@@H](c3ccc4c(c3)OCO4)CN2CC(=O)Nc2c(CC)cccc2CC)cc1`, the inhibition was -7.1%.
`CC(C)(O)c1cncc(-c2nc3ccc(F)cc3n2C2CC2)c1` has an inhibition of 22.7%.

Series 4
Compound: CC(=O)N[C@@H](Cc1c[nH]c2ccccc12)C(=O)N[C@@H](CCC(=O)C=[N+]=[N-])C(=O)OC(C)C
Route: subcutaneous
Dose: 0.3 mg/kg/day DON equivalent
Time: 5 days
Reading: higher = more metabolite
UPLC-MS/MS metabolomics, measured: galactonate; EL4, C57BL/6 CES1-/- mice, EL4 tumour, tumour — “metabolite peak area”: 6.66e+07 a.u. and 3.57e+07 a.u. and 5.28e+07 a.u. and 4.39e+07 a.u. and 5.21e+07 a.u. and 8.04e+07 a.u.
UPLC-MS/MS metabolomics, measured: erythritol; EL4, C57BL/6 CES1-/- mice, EL4 tumour, tumour — “metabolite peak area”: 576000 a.u. and 425000 a.u. and 202000 a.u. and 608000 a.u. and 565000 a.u. and 157000 a.u.
For UPLC-MS/MS, measured: tricarballylate; C57BL/6 CES1-/- mice, EL4 tumour: “metabolite peak area” read 6.45e+07 a.u. and 4e+07 a.u. and 2.2e+07 a.u. and 4.32e+07 a.u. and 1.61e+07 a.u. and 1.21e+08 a.u.
The “metabolite peak area” was 3.9e+06 a.u. and 3.38e+06 a.u. and 4.71e+06 a.u. and 6.34e+06 a.u. and 3.96e+06 a.u. and 3.69e+06 a.u. (UPLC-MS/MS metabolomics, measured: dCMP; EL4, C57BL/6 CES1-/- mice, EL4 tumour, tumour).

Series 5
Cell line: mouse MPNST tumor cells
Technique: high-content nuclear imaging
Measured: cell number
Tested at: 10 µM
Time: 12 h
Setting: mean of 2 replicates
Relative to: plate mean
Reading: higher = more cells
With `NC(N)=N/N=C/c1ccccc1Cl` the nuclei count was 2.73 z-score.
The nuclei count of `O=S(=O)(NC1CCC(c2cc(F)ccc2F)(S(=O)(=O)c2ccc(Cl)cc2)CC1)C(F)(F)F` (stereo not shown) is reported as 1.2 z-score.
The nuclei count of `c1cc2c(cc1C1CCCCC1)c1c3n2CCNC3CCC1` (stereo not shown) is reported as -5.77 z-score.
For `COc1ccc2[nH]c(=O)c(C(c3nnnn3CCc3ccccc3)N3CCN(C4CCCCC4)CC3)cc2c1` (stereo not shown), the nuclei count was 0.228 z-score.
With `COc1ccc(-c2cc3c(C)nc(N)nc3n([C@H]3CC[C@H](OCCO)CC3)c2=O)cn1` the nuclei count was -3.49 z-score.
`C[C@]12CCC(=O)C=C1CC[C@@H]1[C@@H]2C(=O)C[C@@]2(C)[C@H]1CC[C@]2(O)C(=O)CO` gave a nuclei count of 3.51 z-score.
For `COc1c(C)c2c(c(O)c1C/C=C(\C)CCC(=O)O)C(=O)OC2`, the nuclei count was -2.77 z-score.

Series 6
Species: human
Medium: microsomes or S9
Tested at: 2 µM
Time: 0.5 h
`Cc1ccc(S(=O)(=O)c2c(O)c3sc4cccc(Cl)c4c3[nH]c2=O)cc1` gave a remaining compound of 77.5%.
The remaining compound of `COc1ccc(F)c(-c2nc(COc3ccc(-n4cncn4)cc3)c(C)o2)c1` is reported as 55.8%.
For `CCC(C)NC(=O)Cn1nc(C(=O)N2CCCC2)ccc1=O` (stereo not shown), the remaining compound was 76%.
`O=C(Nc1ccc2nc[nH]c(=O)c2c1)c1cc(-c2ccc(Br)s2)n[nH]1` has a remaining compound of 70.6%.
For `Cc1ccc(-c2nc3scc(CCNS(=O)(=O)c4ccc(Br)cc4)n3n2)cc1`, the remaining compound was 6.18%.

For quick reference, copied from above (series 3):
The inhibition of `Cc1nc(C2CCN(C(=O)c3ccc(OC(F)(F)F)cc3N)CC2)c2ncc(N3CCN(C)CC3)cc2n1` is reported as 51.4%.
`CC(C)(O)c1cncc(-c2nc3ccc(F)cc3n2C2CC2)c1` has an inhibition of 22.7%.
For `CCCOc1ccc([C@H]2[C@H](C(=O)O)[C@@H](c3ccc4c(c3)OCO4)CN2CC(=O)Nc2c(CC)cccc2CC)cc1`, the inhibition was -7.1%.
`CC(=O)Nc1nc(CN2CCC[C@H](Cc3cc(C)nc(C)c3)C2)cs1` has an inhibition of 59.6%.
`Cc1c(N2CCCC2)nc2ccc(Br)cc2c1C(=O)NC[C@H](CCC(=O)O)c1ccccc1Cl` has an inhibition of 8.52%.
`O=C(Nc1ccc(-n2nc(-c3cccnc3)cc2C(F)(F)F)cn1)c1ccc(-c2ccccc2)c(F)c1` gave an inhibition of 30.1%.
